# Measured values pooled from the literature.
# A part holds a random share of what one study measured. Several values in a cell are separate wells, animals, samples, runs or records.
# Chain of UniProt Q99640 (whole entry, looked up): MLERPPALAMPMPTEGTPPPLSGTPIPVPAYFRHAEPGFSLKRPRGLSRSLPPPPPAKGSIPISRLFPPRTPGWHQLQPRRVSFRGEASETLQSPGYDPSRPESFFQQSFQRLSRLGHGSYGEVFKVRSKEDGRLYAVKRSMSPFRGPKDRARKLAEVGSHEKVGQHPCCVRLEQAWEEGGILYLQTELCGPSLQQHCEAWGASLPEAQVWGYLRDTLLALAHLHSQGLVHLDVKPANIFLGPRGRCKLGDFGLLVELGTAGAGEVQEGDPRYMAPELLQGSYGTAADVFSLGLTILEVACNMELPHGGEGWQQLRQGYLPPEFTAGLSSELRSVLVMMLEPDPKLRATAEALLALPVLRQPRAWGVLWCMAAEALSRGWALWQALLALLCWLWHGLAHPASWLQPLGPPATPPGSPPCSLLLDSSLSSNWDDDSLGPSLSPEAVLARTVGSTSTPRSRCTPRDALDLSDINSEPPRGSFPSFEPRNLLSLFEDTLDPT

# Set 1
# Structure (SMILES): Cn1cc(-c2cccc(CN3CCC4(CC3)COc3c4ccc4c3CN([C@H]3CCC(=O)NC3=O)C4=O)c2)cn1
system,conditions,AUC(0-inf)
cynomolgus monkey,"oral, 3 mg/kg",1880 ng·h/mL and 1390 ng·h/mL and 1450 ng·h/mL
rat,"intravenous, 1 mg/kg, approximate dose",785 ng·h/mL and 760 ng·h/mL and 997 ng·h/mL
rat,"oral, 3 mg/kg, approximate dose",3680 ng·h/mL and 2150 ng·h/mL and 2700 ng·h/mL
"cynomolgus monkey, plasma","oral, 3.02 mg/kg",1570 ng·h/mL

# Mixed results
Compound,tested on,assay,system,conditions,how to read,endpoint,result
C#CCN1C(=O)C(O)(C(=O)O)Oc2cc(F)ccc21 (centres unmarked),Eclipta prostrata,fresh weight,,"150 g ai/ha, post-emergence treatment",,inhibition,78.4% and 76.9% and 79.9%
N=C(N)NCCCCCCN1CCC23c4c5ccc(O)c4OC2c2nc4ccccc4cc2CC3(O)C1C5 (centres unmarked),,modified Racine scale,"C57BL/6J mice, male","intracerebroventricular, 100 nmol, 5 min",direction not given,seizure score,0
Cc1ccc(O)c(C)c1-c1cnc2[nH]c(-c3cnc(N4CCC(CN5CCN(c6ccc(N7CCC(=O)NC7=O)cc6F)CC5)CC4)nc3)cc2c1C#N,"PKMYT1 (Homo sapiens, UniProt Q99640)","binding, HTRF",,0.051 nM,,inhibition,-2.09% and -2.19%
COc1cc(C(=O)OCCCN2CCCN(CCCOC(=O)c3cc(OC)c(OC)c(OCc4ccc([N+](=O)[O-])cc4)c3)CC2)cc(OC)c1OC,,,"CD-1 mice, male, spinal cord","subcutaneous, 30 mg/kg, 4.5 h",,concentration,80 ng/mL

# A few entries again (set 1):
system,conditions,AUC(0-inf)
rat,"oral, 3 mg/kg, approximate dose",3680 ng·h/mL and 2150 ng·h/mL and 2700 ng·h/mL
